# Measured values gathered from unrelated publications.
# Compare with care: the assays were run in different laboratories. ± marks the error that the study gave.
# T1: thiM TPP riboswitch transcriptional intermediate mimic, 2-aminopurine at 62 (Escherichia coli); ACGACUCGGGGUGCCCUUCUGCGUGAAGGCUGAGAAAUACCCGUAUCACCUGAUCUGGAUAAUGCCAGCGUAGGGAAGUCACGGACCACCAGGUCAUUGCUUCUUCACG
# UniProt O14976, sequence (whole entry, looked up): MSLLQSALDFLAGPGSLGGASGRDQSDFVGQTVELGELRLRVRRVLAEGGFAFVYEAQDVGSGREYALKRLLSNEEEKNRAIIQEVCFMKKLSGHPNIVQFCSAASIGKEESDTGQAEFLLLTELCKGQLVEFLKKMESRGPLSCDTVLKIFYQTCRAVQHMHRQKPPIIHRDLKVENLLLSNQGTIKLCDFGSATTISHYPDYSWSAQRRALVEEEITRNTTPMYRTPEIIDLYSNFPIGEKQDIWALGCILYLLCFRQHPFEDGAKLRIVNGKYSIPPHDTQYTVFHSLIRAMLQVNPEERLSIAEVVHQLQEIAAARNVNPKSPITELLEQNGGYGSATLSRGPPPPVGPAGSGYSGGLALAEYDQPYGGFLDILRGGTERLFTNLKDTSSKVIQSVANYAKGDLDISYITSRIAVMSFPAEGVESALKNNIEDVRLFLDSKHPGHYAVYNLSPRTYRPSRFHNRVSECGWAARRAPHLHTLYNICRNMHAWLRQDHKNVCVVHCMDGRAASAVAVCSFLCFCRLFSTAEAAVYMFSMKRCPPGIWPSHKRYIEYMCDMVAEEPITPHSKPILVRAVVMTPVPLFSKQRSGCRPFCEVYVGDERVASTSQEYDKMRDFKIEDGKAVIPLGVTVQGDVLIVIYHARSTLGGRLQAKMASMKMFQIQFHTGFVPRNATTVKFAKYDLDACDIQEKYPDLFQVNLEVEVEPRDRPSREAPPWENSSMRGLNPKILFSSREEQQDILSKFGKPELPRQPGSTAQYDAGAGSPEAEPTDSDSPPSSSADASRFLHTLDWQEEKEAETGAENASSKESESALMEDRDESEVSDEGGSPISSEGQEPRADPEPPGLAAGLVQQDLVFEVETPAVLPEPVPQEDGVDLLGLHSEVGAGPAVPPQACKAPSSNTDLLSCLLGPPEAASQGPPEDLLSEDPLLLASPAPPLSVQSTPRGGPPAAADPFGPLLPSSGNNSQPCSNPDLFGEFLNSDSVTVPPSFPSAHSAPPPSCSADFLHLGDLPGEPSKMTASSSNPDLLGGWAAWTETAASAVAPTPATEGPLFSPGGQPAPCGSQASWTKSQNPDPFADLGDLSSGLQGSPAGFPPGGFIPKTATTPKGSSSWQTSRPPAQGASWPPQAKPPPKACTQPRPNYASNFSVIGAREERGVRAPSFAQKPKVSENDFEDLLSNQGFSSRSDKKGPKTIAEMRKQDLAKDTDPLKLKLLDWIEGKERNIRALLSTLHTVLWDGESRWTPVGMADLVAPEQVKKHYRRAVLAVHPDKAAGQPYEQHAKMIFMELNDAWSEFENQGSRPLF
# UniProt Q9Y2J8, sequence (whole entry, looked up): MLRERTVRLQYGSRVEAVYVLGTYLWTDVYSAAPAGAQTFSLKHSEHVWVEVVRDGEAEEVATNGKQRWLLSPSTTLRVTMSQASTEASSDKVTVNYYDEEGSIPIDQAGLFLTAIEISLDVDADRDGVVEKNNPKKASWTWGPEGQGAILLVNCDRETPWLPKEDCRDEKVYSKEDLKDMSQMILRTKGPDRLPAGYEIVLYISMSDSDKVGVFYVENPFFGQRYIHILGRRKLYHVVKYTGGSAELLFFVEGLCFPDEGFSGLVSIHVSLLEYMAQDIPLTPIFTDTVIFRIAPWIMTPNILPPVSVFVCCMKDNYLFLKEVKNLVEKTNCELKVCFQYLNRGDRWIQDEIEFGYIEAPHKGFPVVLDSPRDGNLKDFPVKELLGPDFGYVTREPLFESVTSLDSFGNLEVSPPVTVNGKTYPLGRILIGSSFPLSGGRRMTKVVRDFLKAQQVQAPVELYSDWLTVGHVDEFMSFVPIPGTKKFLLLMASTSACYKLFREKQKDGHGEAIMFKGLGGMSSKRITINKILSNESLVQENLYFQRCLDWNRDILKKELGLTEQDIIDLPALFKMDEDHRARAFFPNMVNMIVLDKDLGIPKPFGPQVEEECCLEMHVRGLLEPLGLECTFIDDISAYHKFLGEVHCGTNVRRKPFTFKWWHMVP
# UniProt P28907, sequence (whole entry, looked up): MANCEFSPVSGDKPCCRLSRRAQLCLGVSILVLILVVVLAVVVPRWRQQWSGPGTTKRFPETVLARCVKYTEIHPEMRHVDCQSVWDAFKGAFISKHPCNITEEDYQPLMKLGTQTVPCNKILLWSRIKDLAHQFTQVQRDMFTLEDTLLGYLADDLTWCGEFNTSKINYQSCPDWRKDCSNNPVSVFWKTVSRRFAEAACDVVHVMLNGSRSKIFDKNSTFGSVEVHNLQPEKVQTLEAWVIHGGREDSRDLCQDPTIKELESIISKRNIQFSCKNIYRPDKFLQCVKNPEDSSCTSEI
# UniProt P12004, sequence (whole entry, unmodified, looked up): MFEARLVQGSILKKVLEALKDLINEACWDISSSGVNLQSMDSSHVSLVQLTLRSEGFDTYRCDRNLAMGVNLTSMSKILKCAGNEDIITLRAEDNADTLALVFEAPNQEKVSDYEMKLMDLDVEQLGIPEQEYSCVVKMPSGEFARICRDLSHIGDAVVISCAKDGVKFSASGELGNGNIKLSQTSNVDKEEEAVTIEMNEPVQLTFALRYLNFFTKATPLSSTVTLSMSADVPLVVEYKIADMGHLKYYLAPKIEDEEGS
# UniProt A0A2U7XUH7, sequence (whole entry, unmodified, looked up): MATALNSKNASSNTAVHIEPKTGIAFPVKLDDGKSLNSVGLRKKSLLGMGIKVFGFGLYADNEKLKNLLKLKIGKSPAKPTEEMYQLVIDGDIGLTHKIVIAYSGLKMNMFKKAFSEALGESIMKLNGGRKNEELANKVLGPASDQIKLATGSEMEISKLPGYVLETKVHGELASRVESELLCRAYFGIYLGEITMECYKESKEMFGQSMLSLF
# UniProt G5EFS4, sequence (whole entry, looked up): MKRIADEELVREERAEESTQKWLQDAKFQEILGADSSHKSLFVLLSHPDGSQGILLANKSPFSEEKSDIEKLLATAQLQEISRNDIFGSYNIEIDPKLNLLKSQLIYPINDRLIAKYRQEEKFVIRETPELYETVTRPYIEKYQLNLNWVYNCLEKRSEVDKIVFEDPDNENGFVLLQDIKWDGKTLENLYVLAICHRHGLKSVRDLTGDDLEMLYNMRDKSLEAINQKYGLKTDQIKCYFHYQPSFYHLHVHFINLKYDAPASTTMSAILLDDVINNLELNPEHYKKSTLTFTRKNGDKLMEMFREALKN
# UniProt O60656, sequence (whole entry, looked up): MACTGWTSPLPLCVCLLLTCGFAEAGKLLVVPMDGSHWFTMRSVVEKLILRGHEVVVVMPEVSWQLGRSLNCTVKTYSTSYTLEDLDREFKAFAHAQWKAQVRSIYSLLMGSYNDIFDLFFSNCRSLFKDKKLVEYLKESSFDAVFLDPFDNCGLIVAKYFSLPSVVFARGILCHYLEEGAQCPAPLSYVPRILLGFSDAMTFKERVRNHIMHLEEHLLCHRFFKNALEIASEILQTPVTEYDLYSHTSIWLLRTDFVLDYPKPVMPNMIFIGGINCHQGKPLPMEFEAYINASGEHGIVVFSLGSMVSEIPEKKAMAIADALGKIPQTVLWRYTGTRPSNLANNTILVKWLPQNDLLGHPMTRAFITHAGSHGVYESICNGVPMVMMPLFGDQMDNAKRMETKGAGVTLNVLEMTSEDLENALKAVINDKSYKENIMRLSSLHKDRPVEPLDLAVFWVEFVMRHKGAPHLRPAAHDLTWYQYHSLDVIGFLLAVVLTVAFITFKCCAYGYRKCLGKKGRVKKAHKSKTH
# UniProt Q9HCG7, sequence (whole entry, looked up): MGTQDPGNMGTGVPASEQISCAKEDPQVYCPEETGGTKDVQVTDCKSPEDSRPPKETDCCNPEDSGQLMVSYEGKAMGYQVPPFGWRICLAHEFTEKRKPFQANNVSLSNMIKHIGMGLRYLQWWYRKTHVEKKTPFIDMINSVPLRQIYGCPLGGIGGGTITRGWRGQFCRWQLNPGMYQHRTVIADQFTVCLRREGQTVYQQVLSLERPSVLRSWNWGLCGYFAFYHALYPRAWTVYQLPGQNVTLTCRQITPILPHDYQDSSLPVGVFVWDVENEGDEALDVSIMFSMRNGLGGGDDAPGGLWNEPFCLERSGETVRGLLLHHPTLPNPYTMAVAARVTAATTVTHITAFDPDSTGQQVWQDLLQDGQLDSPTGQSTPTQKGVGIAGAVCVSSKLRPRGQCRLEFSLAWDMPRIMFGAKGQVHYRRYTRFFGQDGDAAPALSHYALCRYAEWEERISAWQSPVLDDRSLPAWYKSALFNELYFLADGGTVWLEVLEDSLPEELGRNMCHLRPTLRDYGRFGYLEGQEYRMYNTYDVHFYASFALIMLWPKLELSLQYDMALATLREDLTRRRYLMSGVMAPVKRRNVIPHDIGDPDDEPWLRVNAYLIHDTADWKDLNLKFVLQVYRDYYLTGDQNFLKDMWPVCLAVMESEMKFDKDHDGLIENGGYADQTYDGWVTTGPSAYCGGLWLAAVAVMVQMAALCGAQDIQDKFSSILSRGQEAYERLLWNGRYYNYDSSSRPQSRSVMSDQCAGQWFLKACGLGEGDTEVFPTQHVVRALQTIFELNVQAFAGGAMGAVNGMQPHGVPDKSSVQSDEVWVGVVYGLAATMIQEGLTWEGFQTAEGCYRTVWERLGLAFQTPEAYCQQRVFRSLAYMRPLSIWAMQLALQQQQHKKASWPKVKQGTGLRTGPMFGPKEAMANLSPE
SMILES,target or system,test,system,conditions,scale,endpoint,result
[64Cu+2].c1cnc(CNCc2ccc(CN3CCCN4CCNCCCN(CC4)CC3)cc2)nc1,CXCR4,,"NOD/SCID mouse, U87 and U87-stb-CXCR4 xenografts, pancreas","iv, 240 min, ex vivo",,tissue uptake,1.6 ± 0.25 %ID/g
COC(=O)c1cnc(-c2cnccn2)cc1C(=O)OC.COC(=O)c1cnc(-c2cnccn2)cc1C(=O)OC.F[P-](F)(F)(F)(F)F.[Ag+],calf thymus DNA,ethidium bromide displacement,,,,quenching rate constant,1.5e+11 M⁻¹ s⁻¹
OC[C@@H]1[C@@H](O)[C@H](O)[C@@H](O)CN1CCCCCOCC1CCCO1 (stereo partly shown),"Beta-glucosidase (GBA2, Homo sapiens, UniProt Q9HCG7)",,,,baseline: GBA1 over target,selectivity ratio,689
CSCC[C@H](NC(=O)[C@H](CO)NC(=O)[C@H](CC(N)=O)NC(=O)[C@H](CC(C)C)NC(=O)[C@H](CO)NC(=O)[C@H](CCCCN)NC(=O)CNC(=O)[C@H](CCCCN)NC(=O)[C@H](CC(=O)O)NC(=O)[C@H](Cc1c[nH]cn1)NC(=O)[C@H](CC(C)C)NC(=O)[C@H](CC(C)C)NC(=O)[C@H](CCC(N)=O)NC(=O)[C@H](Cc1c[nH]cn1)NC(=O)[C@H](CCC(=O)O)NC(=O)[C@H](CO)NC(=O)[C@@H](NC(=O)[C@H](C)N)C(C)C)C(=O)N[C@@H](CCC(=O)O)C(=O)N[C@@H](CCCNC(=N)N)C(=O)N[C@H](C(=O)N[C@@H](CCC(=O)O)C(=O)N[C@@H](Cc1c[nH]c2ccccc12)C(=O)N[C@@H](CC(C)C)C(=O)N[C@@H](CCCNC(=N)N)C(=O)N[C@@H](CCCCN)C(=O)N[C@@H](CCCCN)C(=O)N[C@@H](CC(C)C)C(=O)N[C@@H](CCC(N)=O)C(=O)N[C@@H](CC(=O)O)C(=O)N[C@H](C(=O)N[C@@H](Cc1c[nH]cn1)C(=O)N[C@@H](CC(N)=O)C(=O)N[C@@H](Cc1ccccc1)C(=O)N[C@@H](CCCCNC(=O)c1ccc2c(c1)C1(OC2=O)c2ccc(N(C)C)cc2Oc2cc(N(C)C)ccc21)C(N)=O)C(C)C)C(C)C,"PTH1R (Homo sapiens, UniProt Q03431)","cAMP formation, agonist, GloSensor",HEK293 GP2.3,,baseline: (1-34),Emax,97 ± 6%
BP(=O)(OP(=O)([O-])OC[C@H]1O[C@@H](n2c[n+](C)c3c(=O)[nH]c(N)nc32)[C@H](O)[C@@H]1O)OP(=O)([O-])OC[C@H]1O[C@@H](n2c[n+](C)c3c(=O)[nH]c(N)nc32)[C@H](O)[C@@H]1O,"m7GpppX diphosphatase (dcs-1, Caenorhabditis elegans, UniProt G5EFS4)","hydrolysis by DcpS, substrate, HPLC",,"15 µM, 90 min, pH 7.6, 20 °C, enzyme 200 nM",,cleavage,60%
Cc1ncc(C[n+]2csc(CCOP(=O)(O)OP(=O)(O)O)c2C)c(N)n1,"T1, thiM TPP riboswitch transcriptional intermediate mimic, 2-aminopurine at 62 (Escherichia coli)",2-aminopurine fluorescence,,"pH 7.5, 25 °C, KCl 100 mM, with: TPP 3 µM",,binding,binds weakly
CC(=O)NCCN(CC(=O)NCCN(CC(=O)NCCN(CC(=O)NCCC(N)=O)C(=O)[C@@H](N)Cc1ccccc1)C(=O)[C@@H](N)CCCNC(=N)N)C(=O)[C@@H](N)CCCNC(=N)N,HIV-1 TAR RNA,,,concentration not given,,heat capacity change ΔCp,-1.98 ± 0.23 kJ/mol/K
O=C([O-])CN1CCN(CC(=O)[O-])CCN(CC(=O)NCCc2ccc3c(c2)C2C=CCC2C(c2cc4c(cc2Br)OCO4)N3)CCN(CC(=O)[O-])CC1.[111In+3] (stereo not shown),Hec50 tumour model,,"host not given, blood","1 h, tumour-bearing",,tracer uptake,2.22 %ID/g
[64Cu+2].c1ccc(CNCc2ccc(CN3CCCN4CCNCCCN(CC4)CC3)cc2)nc1,CXCR4 (human),,"NOD/SCID mice, U87 xenografts, U87 control tumour",30 min post-injection,,tissue uptake,5.89 ± 7.01 %ID/g
Cc1sc2nc[nH]c(=O)c2c1C,"GAK (Homo sapiens, UniProt O14976)",weak affinity chromatography,,,,ligand efficiency,0.6
CCCC[C@H](NC(=O)CCCCCCCNC(=O)CN1CCN(CC(=O)O)CCN(CC(=O)O)CC1)C(=O)N[C@H]1CC(=O)NCCCC[C@@H](C(N)=O)NC(=O)[C@H](Cc2c[nH]c3ccccc23)NC(=O)[C@H](CCCNC(=N)N)NC(=O)[C@@H](Cc2ccccc2)NC(=O)[C@H](Cc2c[nH]cn2)NC1=O [copper-64 labelled],,,"C57 mice, intestine","intravenous, 0.37 MBq, 2 h",,tissue uptake,3.78 ± 0.51 %ID
CSCC[C@H](NC(=O)[C@H](CO)NC(=O)[C@@H](NC(=O)[C@H](CCC(N)=O)NC(C)=O)[C@@H](C)O)C(=O)N[C@H](C(=O)N[C@@H](CC(=O)O)C(=O)N[C@@H](Cc1ccccc1)C(=O)N[C@@H](Cc1ccc(O)cc1)C(=O)N[C@@H](Cc1c[nH]cn1)C(=O)N[C@@H](CO)C(N)=O)[C@@H](C)O,"PCNA (Homo sapiens, UniProt P12004)",isothermal titration calorimetry,,"concentration not given, pH 7.4, 25 °C, 300 mM NaCl, with: p21 peptide",,binding enthalpy ΔH,-21 ± 3.35 kcal/mol
O=c1c(-c2ccc(OCc3ccc(F)cc3)cc2)coc2cc(OCc3ccc(F)cc3)cc(OCc3ccc(F)cc3)c12,"CD38 (Homo sapiens, UniProt P28907)","hydrolase activity, fluorometric",,"50 µM, with: ε-NAD+ substrate",baseline: untreated,remaining activity,49 ± 1.5%
O=C(O)[C@H]1O[C@@H](O[C@H]2C=Cc3c(cc4ccc5cccc6c7ccccc7c3c4c56)[C@@H]2O)[C@H](O)[C@@H](O)[C@@H]1O,"UGT1A9 (Homo sapiens, UniProt O60656)","glucuronidation, substrate",UGT-expressing HEK293 homogenate,normalized to UGT expression,,kcat/Km,< 0.0167 M⁻¹ s⁻¹
N=C(CF)NCCC[C@H](NC(=O)c1ccc(/N=N/c2ccccc2)cc1)c1nc2ccccc2[nH]1,"PADI2 (Homo sapiens, UniProt Q9Y2J8)","inhibitor, competitive ABPP",,,baseline: other photoisomer over this photoisomer,IC50 fold difference,2 fold
O=C(/C=C/c1ccc(O)cc1)c1c(O)cc(O)cc1O,"Chalcone isomerase-like protein 1 (CHIL1, Humulus lupulus, UniProt A0A2U7XUH7, A143F/V139F)","binding, differential scanning fluorimetry",,double mutant,,ΔTm max,4.7 °C

# For quick reference, copied from above:
SMILES,target or system,test,system,conditions,scale,endpoint,result
[64Cu+2].c1cnc(CNCc2ccc(CN3CCCN4CCNCCCN(CC4)CC3)cc2)nc1,CXCR4,,"NOD/SCID mouse, U87 and U87-stb-CXCR4 xenografts, pancreas","iv, 240 min, ex vivo",,tissue uptake,1.6 ± 0.25 %ID/g
COC(=O)c1cnc(-c2cnccn2)cc1C(=O)OC.COC(=O)c1cnc(-c2cnccn2)cc1C(=O)OC.F[P-](F)(F)(F)(F)F.[Ag+],calf thymus DNA,ethidium bromide displacement,,,,quenching rate constant,1.5e+11 M⁻¹ s⁻¹
